Measurements gathered from unrelated publications.
± marks the error that the study gave.
aacA4: Aminoglycoside N(6')-acetyltransferase type 1 (aacA4, Klebsiella pneumoniae, UniProt P19650)
PDEB1: Class 1 phosphodiesterase PDEB1 (PDEB1, Trypanosoma brucei, UniProt Q8WQX9)

By UniProt entry, the sequences of proteins in these tests, tags left out. Residues count along the entry.
UniProt P19650, whole entry: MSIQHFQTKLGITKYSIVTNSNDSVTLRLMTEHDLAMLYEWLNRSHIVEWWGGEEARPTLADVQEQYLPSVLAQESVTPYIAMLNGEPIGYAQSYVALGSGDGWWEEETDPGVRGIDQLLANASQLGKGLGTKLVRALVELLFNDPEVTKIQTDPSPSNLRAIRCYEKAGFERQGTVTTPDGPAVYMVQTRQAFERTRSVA
UniProt Q8WQX9, 1-930: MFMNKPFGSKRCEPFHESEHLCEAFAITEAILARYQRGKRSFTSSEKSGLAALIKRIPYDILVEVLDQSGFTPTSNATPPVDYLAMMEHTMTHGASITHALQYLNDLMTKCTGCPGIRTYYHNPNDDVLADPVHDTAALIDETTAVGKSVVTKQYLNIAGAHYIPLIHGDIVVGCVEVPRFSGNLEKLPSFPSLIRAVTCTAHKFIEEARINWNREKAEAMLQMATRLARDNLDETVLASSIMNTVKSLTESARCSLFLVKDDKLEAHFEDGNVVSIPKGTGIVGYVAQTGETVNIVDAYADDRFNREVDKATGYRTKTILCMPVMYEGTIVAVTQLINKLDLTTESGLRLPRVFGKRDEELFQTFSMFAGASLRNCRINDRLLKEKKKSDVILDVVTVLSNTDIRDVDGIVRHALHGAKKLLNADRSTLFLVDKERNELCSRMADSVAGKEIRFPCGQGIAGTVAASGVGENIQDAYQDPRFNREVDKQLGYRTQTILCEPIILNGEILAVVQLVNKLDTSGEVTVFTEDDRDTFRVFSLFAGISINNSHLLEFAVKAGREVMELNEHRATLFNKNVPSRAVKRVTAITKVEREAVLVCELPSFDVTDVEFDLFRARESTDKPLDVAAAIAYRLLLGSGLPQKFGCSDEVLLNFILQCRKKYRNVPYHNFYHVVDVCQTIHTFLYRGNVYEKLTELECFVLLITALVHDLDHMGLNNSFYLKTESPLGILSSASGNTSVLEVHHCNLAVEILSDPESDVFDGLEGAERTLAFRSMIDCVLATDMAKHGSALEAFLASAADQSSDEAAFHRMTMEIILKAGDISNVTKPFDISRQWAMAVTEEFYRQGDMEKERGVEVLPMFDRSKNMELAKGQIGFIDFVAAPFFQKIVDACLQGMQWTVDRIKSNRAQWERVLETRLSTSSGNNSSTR
UniProt P00533, 25-1210 T790M limits assumed: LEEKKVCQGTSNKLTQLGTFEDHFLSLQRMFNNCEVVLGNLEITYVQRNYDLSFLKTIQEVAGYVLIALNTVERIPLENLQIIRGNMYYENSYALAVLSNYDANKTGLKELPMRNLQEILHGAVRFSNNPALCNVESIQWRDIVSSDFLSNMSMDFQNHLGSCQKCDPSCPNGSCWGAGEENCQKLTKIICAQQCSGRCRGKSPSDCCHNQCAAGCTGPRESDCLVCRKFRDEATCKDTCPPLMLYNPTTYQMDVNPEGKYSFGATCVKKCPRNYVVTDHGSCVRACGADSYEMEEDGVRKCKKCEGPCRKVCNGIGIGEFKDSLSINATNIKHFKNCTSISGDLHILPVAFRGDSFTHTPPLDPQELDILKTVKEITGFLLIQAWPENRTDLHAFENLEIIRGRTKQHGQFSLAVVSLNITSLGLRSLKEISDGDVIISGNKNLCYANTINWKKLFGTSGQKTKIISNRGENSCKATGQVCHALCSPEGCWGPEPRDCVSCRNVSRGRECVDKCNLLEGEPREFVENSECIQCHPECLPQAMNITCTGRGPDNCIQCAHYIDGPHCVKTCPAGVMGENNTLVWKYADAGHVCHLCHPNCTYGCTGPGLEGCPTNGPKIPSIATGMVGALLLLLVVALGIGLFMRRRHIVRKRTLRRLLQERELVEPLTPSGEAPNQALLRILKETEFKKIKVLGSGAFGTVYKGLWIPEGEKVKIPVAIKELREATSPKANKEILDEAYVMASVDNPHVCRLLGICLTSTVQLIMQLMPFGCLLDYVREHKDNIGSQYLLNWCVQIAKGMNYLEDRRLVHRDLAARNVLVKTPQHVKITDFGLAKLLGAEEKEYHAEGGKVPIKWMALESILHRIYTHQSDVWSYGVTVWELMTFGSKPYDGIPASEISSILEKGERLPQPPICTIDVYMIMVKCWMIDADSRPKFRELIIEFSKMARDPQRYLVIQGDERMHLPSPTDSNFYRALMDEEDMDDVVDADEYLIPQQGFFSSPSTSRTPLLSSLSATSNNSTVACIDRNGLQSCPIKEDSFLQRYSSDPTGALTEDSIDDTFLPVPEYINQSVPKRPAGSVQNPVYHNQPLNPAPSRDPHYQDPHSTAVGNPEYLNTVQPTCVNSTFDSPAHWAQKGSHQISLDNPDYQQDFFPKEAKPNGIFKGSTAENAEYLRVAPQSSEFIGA
UniProt P05067, 672-713 limits assumed: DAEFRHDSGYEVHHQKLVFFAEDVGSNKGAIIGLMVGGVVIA
UniProt P18089, whole entry: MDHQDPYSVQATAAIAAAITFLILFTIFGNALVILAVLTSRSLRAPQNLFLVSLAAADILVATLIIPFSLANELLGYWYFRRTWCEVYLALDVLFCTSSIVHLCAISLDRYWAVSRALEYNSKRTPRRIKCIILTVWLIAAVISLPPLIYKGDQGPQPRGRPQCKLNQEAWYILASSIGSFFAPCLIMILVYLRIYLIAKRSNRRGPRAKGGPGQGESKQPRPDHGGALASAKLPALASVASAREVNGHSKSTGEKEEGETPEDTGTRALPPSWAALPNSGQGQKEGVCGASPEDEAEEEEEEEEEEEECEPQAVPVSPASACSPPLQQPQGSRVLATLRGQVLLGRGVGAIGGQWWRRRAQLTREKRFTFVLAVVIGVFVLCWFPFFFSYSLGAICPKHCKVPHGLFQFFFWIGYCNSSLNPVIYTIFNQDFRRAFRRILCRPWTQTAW
UniProt O39928, 2424-3014 limits assumed: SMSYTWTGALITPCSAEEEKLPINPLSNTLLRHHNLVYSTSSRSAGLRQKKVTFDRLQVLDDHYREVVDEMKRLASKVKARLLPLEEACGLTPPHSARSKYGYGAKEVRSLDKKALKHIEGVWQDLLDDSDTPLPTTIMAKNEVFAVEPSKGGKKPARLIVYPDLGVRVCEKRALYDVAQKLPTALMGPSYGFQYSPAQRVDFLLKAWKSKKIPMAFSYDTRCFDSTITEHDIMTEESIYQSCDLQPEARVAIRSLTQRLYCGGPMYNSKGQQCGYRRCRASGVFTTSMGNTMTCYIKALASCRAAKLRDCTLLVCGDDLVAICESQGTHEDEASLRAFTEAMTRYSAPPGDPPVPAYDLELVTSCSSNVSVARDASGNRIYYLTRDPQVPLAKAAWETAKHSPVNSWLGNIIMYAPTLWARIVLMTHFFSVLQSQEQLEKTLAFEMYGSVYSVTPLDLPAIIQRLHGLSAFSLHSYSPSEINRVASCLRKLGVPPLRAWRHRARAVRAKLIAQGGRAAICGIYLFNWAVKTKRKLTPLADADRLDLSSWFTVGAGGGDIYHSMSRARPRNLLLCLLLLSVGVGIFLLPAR

SMILES	target or system	assay	test system	setting	how to read	quantity	value
C=CC(=O)Nc1cc(-n2c(=O)ccc3cnc4ccc(-c5cn[nH]c5)cc4c32)ccc1C	EGFR (Homo sapiens, UniProt P00533, T790M)	KinomeScan binding		1 µM		remaining binding	2%
NCCNCCSc1ccccc1			mouse blood	100 µg/mL, 30 min, 37 °C		blood concentration	54.9 ± 0.88 µg/mL
CN(C)c1cccc(Oc2cnc(Nc3ccccc3)nc2)c1	APP (Homo sapiens, UniProt P05067)	inhibitor, ThT fluorescence		concentration not given, 26 h, 37 °C, with: amyloid-beta 42 12.5 µM		amyloid-beta 42 aggregation	decreased
CC(CCN[C@H](CN[C@H](CO)CN1CCC[C@H]1CN[C@H](CN)c1ccccc1)c1ccccc1)c1ccccc1 (some centres unmarked)	aacA4	acetyltransferase activity		5 µM		inhibition	> 70%
CC(C)(O/N=C(\C(=O)NCB(O)O)c1csc(N)n1)C(=O)O	ADC-7 beta-lactamase (Acinetobacter baumannii, UniProt Q6DRA1)	ESI-MS intact protein		15 min, with: enzyme 14 µM	reference: free β-lactamase	mass shift	1 Da
Cc1ccc(NC(=O)Nc2ccc(-c3nc4ccc(-c5nc6ccc(C)c(S(=O)(=O)O)c6s5)cc4s3)cc2)cc1	MBHA DNA substrate	SYBR Green I displacement		100 µM		DNA bound	90 ± 9%
O=C(NC1CCN(c2ncnc3[nH]cnc23)CC1)c1cccc(NS(=O)(=O)c2ccc([N+](=O)[O-])cc2)c1	A549-ACE2			7.407 µM		viability	99.6%
CCOc1cccc(Nc2c(C(N)=O)cnc3c(C)cc(-c4ccc5cnn(C)c5c4)cc23)c1	PDEB1	enzyme activity, inhibitor		10 µM		inhibition	82 ± 12%
COc1cccc(Nc2ncc(Oc3cccc(N(C)C)c3)cn2)c1	Amyloid-beta precursor protein, Aβ42 oligomers (APP, Homo sapiens, UniProt P05067)	in vitro clotting		20 µM, fibrinogen 1.5 µM plus thrombin, with: amyloid-beta 42 oligomers 3 µM		fibrin clot turbidity	decreased
COc1ccc(CN[C@@H]2CO[C@H](C(c3ccccc3)c3ccccc3)C[C@H]2O)cc1	ADRA2B (Homo sapiens, UniProt P18089)	radioligand binding		10 µM, with: [3H]clonidine		inhibition	28.5%
COc1cccc(Nc2c(C(N)=O)cnc3ccc(-c4ccc5cnn(C)c5c4)cc23)c1	PDEB1	enzyme activity, inhibitor			reference: Region D methyl analogue	potency loss	~4 fold
O=c1ccn([C@@H]2O[C@H](COP(=O)(O)OP(=O)(O)OP(=O)(O)O)[C@@H](O)[C@]2(F)Br)c(=O)[nH]1	Genome polyprotein, NS5B polymerase (Hepatitis C virus genotype 5a, UniProt O39928)	polymerase activity, inhibitor	Hepatitis C virus, genotype 5a		reference: genotype 1b	IC50 fold change	1.9
CCCC[C@H](CN)NC[C@@H]1CCCN1C[C@@H](CO)NC[C@@H](NCCc1ccc(-c2ccccc2)cc1)c1ccccc1	aacA4	acetyltransferase activity		5 µM		inhibition	> 70%
Cc1ccc(S(=O)(=O)Nc2cccc(C(=O)NC3CCN(c4ncnc5[nH]cnc45)CC3)c2)cc1Cl	A549-ACE2			0.09145 µM		viability	105%

A few entries again:
SMILES	target or system	assay	test system	setting	how to read	quantity	value
CCOc1cccc(Nc2c(C(N)=O)cnc3c(C)cc(-c4ccc5cnn(C)c5c4)cc23)c1	PDEB1	enzyme activity, inhibitor		10 µM		inhibition	82 ± 12%
